Assay results of several laboratories.
Parts stem from different laboratories: compare values within a part only. “And” joins repeats or separate records; there may be more than shown.
Sequence of UniProt P07948 (whole entry, looked up): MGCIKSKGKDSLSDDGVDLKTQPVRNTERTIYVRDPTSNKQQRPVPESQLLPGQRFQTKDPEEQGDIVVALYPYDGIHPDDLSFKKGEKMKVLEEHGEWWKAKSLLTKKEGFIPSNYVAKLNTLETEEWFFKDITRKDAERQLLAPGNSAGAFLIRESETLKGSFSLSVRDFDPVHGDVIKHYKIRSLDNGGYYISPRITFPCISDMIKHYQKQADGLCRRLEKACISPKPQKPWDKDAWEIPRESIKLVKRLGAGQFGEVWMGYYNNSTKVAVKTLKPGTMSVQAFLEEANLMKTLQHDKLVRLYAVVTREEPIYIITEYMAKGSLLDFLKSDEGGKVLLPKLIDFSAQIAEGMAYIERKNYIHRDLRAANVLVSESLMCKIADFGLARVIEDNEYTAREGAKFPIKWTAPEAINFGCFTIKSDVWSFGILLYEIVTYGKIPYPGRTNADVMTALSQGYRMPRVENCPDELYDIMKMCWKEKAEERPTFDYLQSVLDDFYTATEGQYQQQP
Sequence of UniProt Q96RR4 (whole entry, looked up): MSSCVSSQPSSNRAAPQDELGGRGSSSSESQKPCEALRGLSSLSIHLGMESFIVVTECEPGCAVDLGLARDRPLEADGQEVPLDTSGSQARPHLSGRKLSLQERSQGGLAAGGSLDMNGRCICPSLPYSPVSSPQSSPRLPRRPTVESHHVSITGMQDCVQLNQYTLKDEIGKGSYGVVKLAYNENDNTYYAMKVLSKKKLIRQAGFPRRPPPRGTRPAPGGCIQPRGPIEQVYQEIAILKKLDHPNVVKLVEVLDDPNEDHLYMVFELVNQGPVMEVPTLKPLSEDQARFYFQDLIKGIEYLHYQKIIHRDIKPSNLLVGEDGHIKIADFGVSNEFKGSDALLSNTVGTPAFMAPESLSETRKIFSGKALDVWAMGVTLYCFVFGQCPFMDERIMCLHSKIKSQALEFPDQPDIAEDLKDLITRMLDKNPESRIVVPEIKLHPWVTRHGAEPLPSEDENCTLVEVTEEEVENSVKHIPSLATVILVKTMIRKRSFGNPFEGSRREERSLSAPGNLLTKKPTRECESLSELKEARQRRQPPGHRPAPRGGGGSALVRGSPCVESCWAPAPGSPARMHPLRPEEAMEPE
Sequence of UniProt O95747 (whole entry, looked up): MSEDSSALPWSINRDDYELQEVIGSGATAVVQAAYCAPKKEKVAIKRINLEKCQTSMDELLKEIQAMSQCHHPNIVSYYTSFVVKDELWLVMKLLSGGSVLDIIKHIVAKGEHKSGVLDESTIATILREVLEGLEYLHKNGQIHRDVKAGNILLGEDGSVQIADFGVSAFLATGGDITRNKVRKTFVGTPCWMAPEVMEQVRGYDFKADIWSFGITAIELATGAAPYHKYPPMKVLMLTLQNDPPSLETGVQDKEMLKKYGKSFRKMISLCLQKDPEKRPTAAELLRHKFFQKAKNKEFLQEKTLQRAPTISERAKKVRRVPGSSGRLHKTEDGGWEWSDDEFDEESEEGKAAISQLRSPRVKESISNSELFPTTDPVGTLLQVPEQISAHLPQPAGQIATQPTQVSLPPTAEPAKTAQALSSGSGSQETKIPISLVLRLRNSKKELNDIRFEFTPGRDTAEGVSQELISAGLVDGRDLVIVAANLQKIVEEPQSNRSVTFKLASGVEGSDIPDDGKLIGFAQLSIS
Sequence of UniProt Q15831 (whole entry, looked up): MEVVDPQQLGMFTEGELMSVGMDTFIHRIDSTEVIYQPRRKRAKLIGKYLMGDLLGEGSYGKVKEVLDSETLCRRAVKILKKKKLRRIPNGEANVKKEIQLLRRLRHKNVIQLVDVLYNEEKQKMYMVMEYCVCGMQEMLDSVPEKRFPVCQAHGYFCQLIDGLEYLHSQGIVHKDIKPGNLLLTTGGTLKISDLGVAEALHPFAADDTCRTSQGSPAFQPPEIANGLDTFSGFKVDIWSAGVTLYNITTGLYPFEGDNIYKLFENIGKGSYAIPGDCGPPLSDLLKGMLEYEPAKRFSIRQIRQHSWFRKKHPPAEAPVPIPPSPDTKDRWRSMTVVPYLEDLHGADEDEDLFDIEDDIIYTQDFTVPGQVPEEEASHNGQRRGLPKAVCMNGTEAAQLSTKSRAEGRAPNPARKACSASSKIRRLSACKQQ
Sequence of UniProt P11802 (whole entry, looked up): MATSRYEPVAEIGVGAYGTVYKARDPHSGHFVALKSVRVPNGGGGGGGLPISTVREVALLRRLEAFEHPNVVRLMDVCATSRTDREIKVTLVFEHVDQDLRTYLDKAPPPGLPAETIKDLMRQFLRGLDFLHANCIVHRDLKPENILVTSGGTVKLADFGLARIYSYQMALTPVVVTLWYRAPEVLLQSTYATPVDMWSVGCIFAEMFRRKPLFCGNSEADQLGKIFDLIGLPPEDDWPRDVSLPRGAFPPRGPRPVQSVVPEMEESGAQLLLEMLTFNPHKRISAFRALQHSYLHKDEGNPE

Study 1 — observed: enzyme activity; action: inhibitor; tested at: 77 µM; reference: untreated
Target: DNA polymerase theta, ATPase domain (POLQ, Homo sapiens, UniProt O75417)
Sequence of UniProt O75417 (whole entry, unmodified, looked up): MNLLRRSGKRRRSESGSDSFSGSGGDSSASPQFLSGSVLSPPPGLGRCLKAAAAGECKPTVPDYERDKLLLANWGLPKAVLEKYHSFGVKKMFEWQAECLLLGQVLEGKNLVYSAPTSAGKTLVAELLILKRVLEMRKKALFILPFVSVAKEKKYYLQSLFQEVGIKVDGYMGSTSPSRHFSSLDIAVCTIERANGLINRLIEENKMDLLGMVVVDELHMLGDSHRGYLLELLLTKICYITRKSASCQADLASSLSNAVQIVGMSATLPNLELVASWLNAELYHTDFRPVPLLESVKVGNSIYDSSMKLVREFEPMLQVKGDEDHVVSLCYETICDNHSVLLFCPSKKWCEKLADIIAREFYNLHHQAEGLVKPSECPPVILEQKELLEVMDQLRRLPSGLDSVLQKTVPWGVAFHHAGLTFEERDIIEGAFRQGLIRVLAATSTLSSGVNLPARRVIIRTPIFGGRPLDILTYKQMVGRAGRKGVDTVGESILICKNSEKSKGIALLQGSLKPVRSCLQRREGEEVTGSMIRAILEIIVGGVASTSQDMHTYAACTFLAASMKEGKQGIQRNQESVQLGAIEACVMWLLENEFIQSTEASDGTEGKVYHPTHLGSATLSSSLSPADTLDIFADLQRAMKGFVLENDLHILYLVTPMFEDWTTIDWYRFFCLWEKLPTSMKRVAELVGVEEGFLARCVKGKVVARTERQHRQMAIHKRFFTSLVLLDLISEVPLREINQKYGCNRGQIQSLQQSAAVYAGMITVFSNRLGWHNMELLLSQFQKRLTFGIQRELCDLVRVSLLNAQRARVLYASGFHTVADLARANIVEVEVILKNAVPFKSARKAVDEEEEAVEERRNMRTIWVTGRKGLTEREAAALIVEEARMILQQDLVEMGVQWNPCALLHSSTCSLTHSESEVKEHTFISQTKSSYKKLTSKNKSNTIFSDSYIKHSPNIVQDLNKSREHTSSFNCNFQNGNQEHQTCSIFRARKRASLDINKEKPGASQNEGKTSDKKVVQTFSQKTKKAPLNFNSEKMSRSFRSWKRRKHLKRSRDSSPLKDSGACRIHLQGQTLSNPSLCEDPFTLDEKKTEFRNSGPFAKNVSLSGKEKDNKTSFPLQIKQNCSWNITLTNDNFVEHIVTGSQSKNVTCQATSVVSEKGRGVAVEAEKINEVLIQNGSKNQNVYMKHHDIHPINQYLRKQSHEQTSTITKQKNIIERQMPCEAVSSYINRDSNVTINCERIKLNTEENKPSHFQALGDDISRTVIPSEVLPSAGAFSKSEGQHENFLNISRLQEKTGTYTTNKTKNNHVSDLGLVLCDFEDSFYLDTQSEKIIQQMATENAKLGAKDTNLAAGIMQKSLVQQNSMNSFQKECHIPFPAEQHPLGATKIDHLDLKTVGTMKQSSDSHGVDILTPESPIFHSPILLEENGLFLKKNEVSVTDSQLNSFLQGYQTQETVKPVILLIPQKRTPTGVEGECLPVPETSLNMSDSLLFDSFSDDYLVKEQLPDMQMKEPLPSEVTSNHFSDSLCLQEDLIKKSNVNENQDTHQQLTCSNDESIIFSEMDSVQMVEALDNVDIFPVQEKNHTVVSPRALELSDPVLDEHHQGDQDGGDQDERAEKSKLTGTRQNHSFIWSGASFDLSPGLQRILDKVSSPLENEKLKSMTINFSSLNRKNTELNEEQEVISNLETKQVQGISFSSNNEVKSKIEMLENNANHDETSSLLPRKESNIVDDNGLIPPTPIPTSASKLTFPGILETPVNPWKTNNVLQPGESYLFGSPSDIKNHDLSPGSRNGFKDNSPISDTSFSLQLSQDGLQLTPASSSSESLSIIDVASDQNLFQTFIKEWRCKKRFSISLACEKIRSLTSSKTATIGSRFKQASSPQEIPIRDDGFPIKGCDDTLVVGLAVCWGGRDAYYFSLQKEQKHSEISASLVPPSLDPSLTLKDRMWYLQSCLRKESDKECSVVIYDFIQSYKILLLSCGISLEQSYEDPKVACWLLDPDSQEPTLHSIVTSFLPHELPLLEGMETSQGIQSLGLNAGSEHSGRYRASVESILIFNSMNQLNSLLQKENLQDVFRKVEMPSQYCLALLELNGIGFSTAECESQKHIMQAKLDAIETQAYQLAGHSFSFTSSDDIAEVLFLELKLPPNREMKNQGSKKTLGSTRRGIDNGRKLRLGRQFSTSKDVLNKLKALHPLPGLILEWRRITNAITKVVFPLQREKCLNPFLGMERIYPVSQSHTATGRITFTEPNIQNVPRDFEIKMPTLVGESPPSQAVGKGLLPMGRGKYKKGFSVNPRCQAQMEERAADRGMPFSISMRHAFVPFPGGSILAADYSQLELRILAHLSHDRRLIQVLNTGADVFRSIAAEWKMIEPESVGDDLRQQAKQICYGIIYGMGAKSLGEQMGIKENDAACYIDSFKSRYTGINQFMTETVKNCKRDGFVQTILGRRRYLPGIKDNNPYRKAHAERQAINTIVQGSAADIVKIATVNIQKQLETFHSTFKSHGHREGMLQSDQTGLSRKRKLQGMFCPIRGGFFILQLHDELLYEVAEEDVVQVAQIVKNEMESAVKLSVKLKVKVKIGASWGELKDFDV
For `N#CC(C#N)=Cc1ccc(O)c(O)c1`, the remaining activity was 99.6%.
The remaining activity of `CC(C)(C)NCC(O)c1cc(Cl)c(N)c(Cl)c1` (stereo not shown) is reported as 101%.
`O=c1ccc2cc(O[C@@H]3O[C@H](CO)[C@@H](O)[C@H](O)[C@H]3O)c(O)cc2o1` has a remaining activity of 102% and 110%.
`CC(CCc1ccccc1)NC(C)C(O)c1ccc(O)cc1` (stereo not shown) gave a remaining activity of 99.7%.
`COc1ccc(OC)c([C@@H](O)[C@H](C)N)c1` gave a remaining activity of 100%.

Study 2 — observed: enzyme activity; action: inhibitor; tested at: 0.5 µM; reference: control
Compound: COc1ccc2c(c[n+](C)c3c4cc5c(cc4ccc23)OCO5)c1OC
STK11 (Homo sapiens, UniProt Q15831) — remaining activity: 82.1%.
It gave 101% for remaining activity (MAP3K3 (Homo sapiens, UniProt Q99759)).
MAPK9 (Homo sapiens, UniProt P45984) — remaining activity: 102%.
For Cyclin-dependent kinase 5, with p25 (CDK5, Homo sapiens, UniProt Q00535): remaining activity read 86.2%.
For DAPK2 (Homo sapiens, UniProt Q9UIK4): remaining activity read 93.9%.
For IKBKB (Homo sapiens, UniProt O14920): remaining activity read 103%.
For NEK2 (Homo sapiens, UniProt P51955): remaining activity read 98.6%.
It gave 78.9% for remaining activity (PRKCA (Homo sapiens, UniProt P17252)).
The remaining activity was 90.8% (STK39 (Homo sapiens, UniProt Q9UEW8)).
For PRKACA (Homo sapiens, UniProt P17612): remaining activity read 100%.
The remaining activity was 71.6% (TGFBR2 (Homo sapiens, UniProt P37173)).
The remaining activity was 98.2% (CAMKK2 (Homo sapiens, UniProt Q96RR4)).
The remaining activity was 95.4% (Tyrosine-protein kinase Lyn, isoform B (LYN, Homo sapiens, UniProt P07948)).
The remaining activity was 100% (Protein kinase C beta type, isoform beta-I (PRKCB, Homo sapiens, UniProt P05771)).
For cGMP-dependent protein kinase 1, isoform beta (PRKG1, Homo sapiens, UniProt Q13976): remaining activity read 97.6%.
The remaining activity was 87.5% (Cyclin-dependent kinase 4, with cyclin D1 (CDK4, Homo sapiens, UniProt P11802)).
The remaining activity was 90.4% (CAMK2D (Homo sapiens, UniProt Q13557)).
For GRK3 (Homo sapiens, UniProt P35626): remaining activity read 88.4%.
The remaining activity was 94.8% (OXSR1 (Homo sapiens, UniProt O95747)).
IKBKE (Homo sapiens, UniProt Q14164) — remaining activity: 101%.
DAPK1 (Homo sapiens, UniProt P53355) — remaining activity: 86.7%.
It gave 92.7% for remaining activity (STK10 (Homo sapiens, UniProt O94804)).
CHEK2 (Homo sapiens, UniProt O96017) — remaining activity: 96.5%.
The remaining activity was 98.5% (TGFBR1 (Homo sapiens, UniProt P36897)).

Study 3 — cell line: HEK-293T; observed: pseudovirus infection; technique: FDA-approved drug library counter-screen; organism: VSV pseudotyped with VSV-G; tested at: 10 µM; time: 16 h; reference: vehicle-treated
For `CC(=O)O[C@H]1C(=O)[C@@]2(C)[C@H]([C@H](OC(=O)c3ccccc3)[C@]3(O)C[C@H](OC(=O)[C@H](O)[C@@H](NC(=O)c4ccccc4)c4ccccc4)C(C)=C1C3(C)C)[C@]1(OC(C)=O)CO[C@@H]1C[C@@H]2O`, the GFP-positive cells was 102%.
The GFP-positive cells of `CC(=O)OCC(COC(C)=O)OC(C)=O` is reported as 130%.
The GFP-positive cells of `CC(=O)Nc1ccc(O)cc1` is reported as 123%.
For `CC#CCn1c(N2CCC[C@@H](N)C2)nc2c1c(=O)n(Cc1nc(C)c3ccccc3n1)c(=O)n2C`, the GFP-positive cells was 107%.
The GFP-positive cells of `CNC[C@H](O)c1cccc(O)c1` is reported as 124%.
With `CCN(CC)C(=O)[C@@]1(c2ccccc2)C[C@H]1CN` the GFP-positive cells was 94.9%.
With `COCCc1ccc(OCC(O)CNC(C)C)cc1` (stereo not shown) the GFP-positive cells was 77.7%.
`C[C@]12CC[C@@H]3c4ccc(OS(=O)(=O)O)cc4CC[C@H]3[C@@H]1CCC2=O` gave a GFP-positive cells of 87%.
With `C/C(O)=C(\C#N)C(=O)Nc1ccc(C(F)(F)F)cc1` the GFP-positive cells was 33.3%.
With `O=S(=O)(O)CCS` the GFP-positive cells was 111%.
The GFP-positive cells of `OC[C@@H](O)[C@@H](O)[C@H](O)[C@H](O)CO` is reported as 114%.
With `CC(=O)O[C@]1(C(C)=O)CC[C@H]2[C@@H]3C=C(C)C4=CC(=O)CC[C@]4(C)[C@H]3CC[C@@]21C` the GFP-positive cells was 120%.
`Cc1ccc(=O)n(-c2ccccc2)c1` gave a GFP-positive cells of 93.8%.
With `Nc1nc(O)c2ncn(COC(CO)CO)c2n1` the GFP-positive cells was 106%.
`CC1(C)O[C@@H]2C[C@H]3[C@@H]4CCC5=CC(=O)CC[C@]5(C)[C@@]4(F)[C@@H](O)C[C@]3(C)[C@]2(C(=O)CCl)O1` has a GFP-positive cells of 113%.
The GFP-positive cells of `C[C@@H]1O[C@@H]1P(=O)(O)O` is reported as 97.7%.
The GFP-positive cells of `CCN(CC)C(=O)N1CCN(C)CC1` is reported as 98.8%.
With `CC(=O)OC(C)C[N+](C)(C)C` (stereo not shown) the GFP-positive cells was 123%.
The GFP-positive cells of `OCc1ccccc1` is reported as 132%.
With `CCCCCCCCCCCCCCCCCCCCCCO` the GFP-positive cells was 95.4%.
The GFP-positive cells of `CCCc1nc(C(C)(C)O)c(C(=O)OCc2oc(=O)oc2C)n1Cc1ccc(-c2ccccc2-c2nnn[nH]2)cc1` is reported as 93.7%.
With `C[Se]CC[C@H](N)C(=O)O` the GFP-positive cells was 119%.
With `CCOC(=O)O[C@]1(C(=O)OCCl)CC[C@H]2[C@@H]3CCC4=CC(=O)C=C[C@]4(C)[C@H]3[C@@H](O)C[C@@]21C` the GFP-positive cells was 110%.
The GFP-positive cells of `C[C@]12CCC(=O)C=C1[C@@H]1C[C@@H]1[C@H]1[C@@H]3[C@@H]4C[C@@H]4[C@@]4(CCC(=O)O4)[C@@]3(C)CC[C@@H]12` is reported as 93.8%.
For `Nc1nc(F)nc2c1ncn2[C@@H]1O[C@H](CO)[C@@H](O)[C@@H]1O`, the GFP-positive cells was 112%.

Single results of other studies
With `C[S+]([O-])CCCCN=C=S` (stereo not shown) the inhibition was 8.5% (chymotrypsin; enzyme activity; concentration not given).
